Measurements from different studies.
Numbered parts are unrelated; each lists some results of a single study.

Study 1
Target: Prothrombin, mature alpha-thrombin (F2, Homo sapiens, UniProt P00734)
Technique: aptamer microarray, sandwich
Molecule type: DNA with 2'F-ANA
Medium: in vitro
Tested at: 200 nM
Setting: whole 15-mer aptamer, many near background
With: Cy3 exosite-II aptamer, 400 nM
Direction: higher = stronger binding
Sequence	mean fluorescence intensity [a.u.]
GGTTGGTGTGGTTGG (2'F-ANA at 5 6 7 8 14 15)	43.9
GGTTGGTGTGGTTGG (2'F-ANA at 3 4 5 7 11 13 14)	54.1
GGTTGGTGTGGTTGG (2'F-ANA at 1 2 3 7 9 11 12)	360
GGTTGGTGTGGTTGG (2'F-ANA at 3 4 5 6 8 9 10 12 13 15)	64.3

Study 2
Target: Centromere-binding protein 1, full length, His-tagged (CBF1, Saccharomyces cerevisiae, UniProt P17106, residues 1-351)
UniProt P17106, sequence (whole entry, looked up): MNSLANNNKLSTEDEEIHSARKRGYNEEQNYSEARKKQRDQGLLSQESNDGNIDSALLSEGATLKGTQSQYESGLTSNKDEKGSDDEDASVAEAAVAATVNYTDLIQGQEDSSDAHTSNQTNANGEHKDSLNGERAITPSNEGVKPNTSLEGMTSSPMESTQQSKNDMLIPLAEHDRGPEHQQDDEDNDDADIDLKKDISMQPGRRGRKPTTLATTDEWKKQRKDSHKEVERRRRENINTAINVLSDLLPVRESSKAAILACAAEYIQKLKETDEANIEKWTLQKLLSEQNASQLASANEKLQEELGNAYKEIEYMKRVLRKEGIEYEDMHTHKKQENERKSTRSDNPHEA
Technique: competition protein-binding microarray
Molecule type: double-stranded DNA, one strand shown
Medium: in vitro
Tested at: 2 µM
Setting: whole 60-bp probe, lowest competitor level
With: Pho4 competitor, 0.05 µM
Direction: higher = stronger binding
Sequence	fluorescence intensity [a.u.]
CGTCCTAGTGATTGTAGTGTGGGTGCCATGAGGAAGGTCTTGATTCGCTTGACGCTGCTG	83.1
GCTGGTGTCTCGTCGCACATGCTATTGTGTGTCATCGTCTTGATTCGCTTGACGCTGCTG	104
TGACCGGGTTGACAGTTCGTGACGGGTACTGTGGCGGTCTTGATTCGCTTGACGCTGCTG	66.8
GTCTTGTCTCATTGTGACGTGGGTGTCCCCACTTCAGTCTTGATTCGCTTGACGCTGCTG	80.6

Study 3
Target: Histone acetyltransferase KAT6A, winged helix 1, GST fusion (KAT6A, Homo sapiens, UniProt Q92794, residues 1-85)
Technique: protein binding microarray
Molecule type: double-stranded DNA, one strand shown
Medium: in vitro
Tested at: not given
Setting: 8-mer, flanks averaged, mean of 2 arrays, mostly near background
Relative to: not given
Direction: higher = stronger binding
Residues (chain): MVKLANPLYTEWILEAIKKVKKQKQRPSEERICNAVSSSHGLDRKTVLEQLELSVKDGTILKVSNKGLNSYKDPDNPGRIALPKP
Sequence	E-score
ATGTCGCC	0.147
GTACACCA	-0.151
GCAGCAAC	-0.02
AATTCTCA	-0.24
ACTTTTTC	-0.0552
GTGGCTCA	0.0469

Single results of other studies
Molecule	target	assay	test system	setting	how to read	measurement	result
PhoQ, residues 284 288 289 292 302 303 QWQEDG	PhoP, residues 12 14 15 18 19 YHFSH (Escherichia coli, UniProt P23836)	Sort-seq, measured: YFP reporter	E. coli	PhoQ-PhoP variant library, with: 10 µM Mg2+	relative to: high Mg2+ state, higher = stronger signaling	fold induction	8.85
